Measured values collected from several papers.
Compare with care: the assays were run in different laboratories. Numbers after ± are the reported error.
Medium: plasma
Route: oral

`CC[C@@H]1CN(C(=O)NCC(F)(F)F)C[C@@H]1c1cnc2cnc3[nH]ccc3n12` gave an AUC(0-24) of 641 ± 177 ng·h/mL (human; 30 mg once daily, multiple doses, day 11, extended-release, steady state).
For `CC(C)[C@@H](CS(=O)(=O)C(C)C)N1C(=O)[C@@](C)(CC(=O)O)C[C@H](c2cccc(Cl)c2)[C@H]1c1ccc(Cl)cc1`, the AUC(0-24) was 2310 ng·h/mL (human; 60 mg, old tablet fasted).
With `CCN1C(=O)CNc2ncc(-c3ccc(-c4nc[nH]n4)nc3C)nc21` the AUC(0-24) was 622 ng·h/mL (LC-MS, noncompartmental; human; 10 mg twice daily, first dose).
The AUC(0-24) of `CC(C)(Sc1ccncc1-c1ccc(C#N)c2ccccc12)C(=O)O` is reported as 107 ng·h/mL (human; 10 mg once daily, day 14, together with: febuxostat 40 mg once daily).
With `CC(C)(Sc1ccncc1-c1ccc(C#N)c2ccccc12)C(=O)O` the AUC(0-24) was 33.8 ng·h/mL (human, male, Japanese; 2.5 mg, day 6, fed, single dose).
`CCS(=O)(=O)N1CC(CC#N)(n2cc(-c3ncnc4[nH]ccc34)cn2)C1` gave an AUC(0-24) of 256 ng·h/mL (healthy Chinese human subjects; 4 mg, single dose, mean).
The AUC(0-24) of `Oc1ncnc2[nH]ncc12` is reported as 3690 ng·h/mL (human male; 300 mg once daily, geometric LS mean).
The AUC(0-24) of `CC(C)c1nc(CN(C)C(=O)N[C@H](C(=O)N[C@@H](Cc2ccccc2)C[C@H](O)[C@H](Cc2ccccc2)NC(=O)OCc2cncs2)C(C)C)cs1` is reported as 5210 ng·h/mL (HIV-infected humans; 100 mg once daily, geometric mean, together with: darunavir 900 mg once daily, with abacavir).
For `O=C(c1ccc(F)c(F)c1Nc1ccc(I)cc1F)N1CC(O)([C@@H]2CCCCN2)C1`, the AUC(0-24) was 10800 ng·h/mL (human; 100 mg, steady state).
For `CC(C)[C@H](N)C(=O)NCCCS(=O)(=O)O`, the AUC(0-24) was 13800 ± 2220 ng·h/mL (human; 340 mg capsule, day 14, fed, multiple dosing).
`O=c1[nH]c(=O)c(Cc2cccc(C(F)(F)F)c2)c([C@H]2CC[C@H](c3ccccc3)CC2)[nH]1` has an AUC(0-24) of 896 ng·h/mL (human; 150 mg once daily, day 1, geometric mean).

Some of these lines once more:
`CCS(=O)(=O)N1CC(CC#N)(n2cc(-c3ncnc4[nH]ccc34)cn2)C1` gave an AUC(0-24) of 256 ng·h/mL (healthy Chinese human subjects; 4 mg, single dose, mean).
